# Results gathered from unrelated publications.
# Protocols differ between the studies behind these lines. Numbers after ± are the reported error.
Structure (SMILES),target,assay,system,conditions,how to read,endpoint,value
CC[S+]([O-])C1C(CO)OC(OC2C(N)CC(N)C(O)C2OC2OC(CO)C(OC3OC(CN)C(O)C(O)C3N)C2O)C(N)C1O (mixture of isomers),"bacterial hybrid ribosome, human mitochondrial A1555G A site",cell-free translation,,,relative to: A1555G hybrid over wild-type bacterial,selectivity ratio,278
O=C(N[C@@H](Cn1ccnc1)c1ccc(F)cc1F)c1ccc(-c2nnc(-c3ccccc3)o2)cc1,Leishmania infantum CYP51,,,concentration not given,,remaining activity,58 ± 4.9%
C[C@H](N)C(=O)N[C@@H](CO)C(=O)N[C@@H](C)C(=O)N[C@H]1CSC(=O)[C@H](Cc2ccccc2)NC(=O)[C@H](Cc2ccc(O)cc2)NC(=O)[C@H](C)NC(=O)[C@H](C)NC1=O,AgrC-II,"inhibitor, GFP reporter","Staphylococcus epidermidis, agr group-II reporter",100 nM,,AgrC-II activity,inhibited
Nc1cc(Oc2ccc(-c3ccccc3)cc2)nn1S(=O)(=O)c1ccc(Oc2ccccc2)cc1,dengue virus 2 protease S135A,ESI-TOF MS,,"20 µM, 1 h, 25 °C",relative to: DMSO control,protein mass shift,0 Da
CC(C)CS[C@H]1[C@H](O)[C@@H](N)[C@@H](O[C@H]2[C@H](O[C@@H]3O[C@H](CO)[C@@H](O[C@H]4O[C@@H](CN)[C@@H](O)[C@H](O)[C@H]4N)[C@H]3O)[C@@H](O)[C@H](N)C[C@@H]2N)O[C@@H]1CO,"bacterial hybrid ribosome, human mitochondrial A1555G A site",cell-free translation,,,relative to: A1555G hybrid over wild-type bacterial,selectivity ratio,1500
Cc1cc(S(=O)(=O)Nc2ncccn2)c(F)cc1N(C)C1CCN([C@H](C)c2ccccc2)CC1,"Nav1.6 R1626A, human","ion current, inhibitor, patch clamp",,,relative to: R1626A over wild type,IC50 increase,> 1000 fold
CC/C(=C\CC[C@H](C)C[C@@H](C)CC[C@H](O)[C@H](C)C(=O)CC(O)[C@H](C)[C@@H](C)OC(=O)C[C@@H](O)C1=C(C)C(=O)OC1=O)C(O)CC(=O)O (stereo partly drawn),PP1 (human),enzyme activity,MCF7,"50 µM, 4 h",relative to: untreated,inhibition,60%
NC[C@@H]1O[C@H](O[C@H]2[C@@H](O)[C@H](O[C@@H]3[C@@H](O)[C@H](N)C[C@H](N)[C@H]3O[C@H]3O[C@H](CO)[C@@H](CCO)[C@H](O)[C@H]3N)O[C@@H]2CO)[C@H](N)[C@@H](O)[C@@H]1O,"bacterial hybrid ribosome, human mitochondrial A1555G A site",cell-free translation,,,relative to: A1555G hybrid over wild-type bacterial,selectivity ratio,833
N[C@@H](Cc1ccc(C(=O)NCCc2ccc(-c3ccccc3)cc2)cc1)C(=O)N1Cc2ccccc2C[C@H]1C(=O)O,"mu opioid receptor, guinea pig",antagonist,guinea pig ileum,,,Ke,5.38 ± 0.38 µM
CCCCCCCCCCCCCCCC(=O)NCCCC[C@H](NC(=O)[C@H](CCCNC(=N)N)NC(=O)[C@H](Cc1ccc(O)cc1)NC(=O)[C@H](CC(C)C)NC(=O)[C@H](CCCNC(=N)N)NC(=O)CNS(=O)(=O)c1ccc(N)cc1)C(N)=O,70S ribosome (Escherichia coli),"binding, fluorescence quenching",,,,Kd,~0.14 nM
O=C(Oc1nsnc1N1CCOCC1)c1ccccc1,trypsin,"enzyme activity, gel-based",,with: denatured BSA substrate,relative to: IgA1 protease over trypsin,selectivity ratio,~3 fold
CC(C)C[C@H](NC(=O)[C@H](C)NC(=O)[C@H](CCCCN)NC(=O)[C@H](CCCNC(=N)N)NC(=O)[C@H](CCC(=O)O)NC(=O)[C@H](C)NC(=O)[C@H](CCC(=O)O)NC(=O)[C@H](CCCCN)NC(=O)[C@H](CCCCN)NC(=O)[C@H](CC(=O)O)NC(=O)[C@H](Cc1c[nH]cn1)NC(=O)[C@H](CC(=O)O)NC(=O)[C@H](C)NC(=O)[C@H](C)NC(=O)[C@H](CCC(=O)O)NC(=O)[C@H](CO)NC(=O)[C@H](CCCCN)NC(=O)[C@H](CC(C)C)NC(=O)[C@H](CCCNC(=N)N)NC(=O)[C@H](CCC(=O)O)NC(=O)[C@H](CC(C)C)NC(=O)[C@H](CCC(=O)O)NC(=O)[C@H](C)NC(=O)[C@H](CCC(=O)O)NC(=O)[C@H](CCC(=O)O)NC(=O)[C@H](Cc1c[nH]cn1)NC(=O)[C@H](CCCNC(=N)N)NC(=O)[C@H](CCC(=O)O)NC(=O)[C@H](CC(N)=O)NC(=O)[C@H](CCCCN)NC(=O)[C@H](CC(C)C)NC(=O)[C@H](CCCNC(=N)N)NC(=O)[C@H](CCC(N)=O)NC(=O)[C@H](CC(C)C)NC(=O)[C@H](CCC(=O)O)NC(=O)[C@H](C)NC(=O)[C@H](CC(=O)O)NC(=O)[C@H](C)NC(=O)[C@@H](NC(=O)[C@H](CC(C)C)NC(=O)[C@H](CCCCN)NC(=O)[C@H](CCC(=O)O)NC(=O)[C@@H](NC(=O)[C@H](CO)NC(=O)CN)C(C)C)[C@@H](C)O)C(=O)N[C@@H](CCC(=O)O)C(=O)N[C@@H](CC(=O)O)C(=O)N[C@@H](CCCCN)C(=O)N[C@@H](CC(C)C)C(=O)N[C@@H](C)C(=O)N[C@@H](CC(=O)O)C(=O)N[C@@H](Cc1ccc(O)cc1)C(=O)O,human K2 plasminogen complex,analytical ultracentrifugation,,"pH 7.4, 25 °C",,molecular mass,16400 ± 1000 Da
CC(=O)N1c2ccc(-c3ccc(C(=O)NCCN4CC(N5CCN(CC(=O)N[C@H](C(=O)N6C[C@@H](O)C[C@H]6C(=O)NCc6ccc(-c7scnc7C)cc6)C(C)(C)C)CC5)C4)cc3)cc2[C@H](Nc2ccc(Cl)cc2)C[C@@H]1C,Spodoptera frugiperda BRD3,"degrader, targeted MS",Spodoptera frugiperda L5 larvae,"injection, 0.1 nmol/mg",relative to: DMSO,BRD3 peptide level increase,20%
CCCCCCCCC(=O)NCc1ccc(O)c(OC)c1,mouse mAb 1-G12,"antibody binding, indirect competitive ELISA",,with: coating antigen 6-OVA,,IC50,0.252 µg/mL
CCCS[C@H]1[C@H](O)[C@@H](N)[C@@H](O[C@H]2[C@H](O[C@@H]3O[C@H](CO)[C@@H](O[C@H]4O[C@@H](CN)[C@@H](O)[C@H](O)[C@H]4N)[C@H]3O)[C@@H](O)[C@H](N)C[C@@H]2N)O[C@@H]1CO,"bacterial hybrid ribosome, human mitochondrial A1555G A site",cell-free translation,,,relative to: A1555G hybrid over wild-type bacterial,selectivity ratio,1570
Cc1ncsc1-c1ccc(CNC(=O)[C@@H]2C[C@@H](O)CN2C(=O)[C@@H](NC(=O)CN2CCN(C3CN(CCNC(=O)c4cc5c(cc4CS(C)(=O)=O)-c4cn(C)c(=O)c6[nH]cc(c46)CN5c4ncc(F)cc4F)C3)CC2)C(C)(C)C)cc1,Spodoptera frugiperda BRD3,"degrader, targeted LC-MS",Sf9,"1 µM, 24 h",,degradation,70%
CCS(=O)(=O)[C@H]1[C@H](O)[C@@H](N)[C@@H](O[C@H]2[C@H](O[C@@H]3O[C@H](CO)[C@@H](O[C@H]4O[C@@H](CN)[C@@H](O)[C@H](O)[C@H]4N)[C@H]3O)[C@@H](O)[C@H](N)C[C@@H]2N)O[C@@H]1CO,"bacterial hybrid ribosome, human mitochondrial A site",cell-free translation,,,relative to: mitochondrial hybrid over wild-type bacterial,selectivity ratio,24
CC(C)C(N)C(=O)NC(C(=O)OCC(=O)C1(O)CCC2C3CCC4=CC(=O)C=CC4(C)C3C(O)CC21C)C(C)C (stereo not drawn),peptide transporters,,MDCK-MDR1,"100 µM, pH 7.4, 37 °C, with: [3H]-GlySar",relative to: untreated,[3H]-GlySar uptake,40%
CCCCCO[C@H]1[C@H](O)[C@@H](N)[C@@H](O[C@H]2[C@H](O[C@@H]3O[C@H](CO)[C@@H](O[C@H]4O[C@@H](CN)[C@@H](O)[C@H](O)[C@H]4N)[C@H]3O)[C@@H](O)[C@H](N)C[C@@H]2N)O[C@@H]1CO,Mycobacterium smegmatis ribosome G1491C,"translation, cell-free luciferase synthesis",,,,IC50,230 ± 32.3 µg/mL
Cc1cc(Nc2cc(CN(C)C)cc(NC(=O)c3cc(CN(C)C)cc(Nc4ccnc5ccccc45)c3)c2)nc(N)n1,human DNA polymerase theta,inhibitor,,50 µM,,inhibition,~75%
CC[C@@H]1CN2CCc3c([nH]c4cccc(OC)c34)[C@@H]2C[C@@H]1/C(=C\OC)C(=O)OC,anti-compound rabbit polyclonal IgG,"antibody binding, competitive indirect ELISA",,pH 7.4,,IC50,1.3 µg/mL
COCC(C)N1CCn2cc(C(=O)NCc3ccc(F)cc3F)c(=O)c(O)c2C1=O (stereo not drawn),HIV-1 integrase wild type,viral replication,"HOS, HIV-1",single-round vector,,EC50,3.6 ± 0.1 nM
NC(=O)[C@H](CO)NC(=O)[C@@H]1CCCN1C(=O)[C@H](Cc1ccc(O)cc1)NC(=O)CNC(=O)[C@H](Cc1ccccc1)NC(=O)[C@@H](CCCNC(=O)CBr)NC(=O)[C@@H](N)Cc1ccc(O)cc1,mu and delta opioid receptors,"binding, radioligand binding",CHO cells,with: [3H]DAMGO,relative to: IC50 DOR over IC50 MOR,selectivity ratio,> 3000 fold
CC(C)S[C@H]1[C@H](O)[C@@H](N)[C@@H](O[C@H]2[C@H](O[C@@H]3O[C@H](CO)[C@@H](O[C@H]4O[C@@H](CN)[C@@H](O)[C@H](O)[C@H]4N)[C@H]3O)[C@@H](O)[C@H](N)C[C@@H]2N)O[C@@H]1CO,"bacterial hybrid ribosome, human mitochondrial A site",cell-free translation,,,relative to: mitochondrial hybrid over wild-type bacterial,selectivity ratio,1210
CC(=O)N[C@H]1CSC(=O)[C@H](Cc2ccccc2)NC(=O)[C@H](Cc2ccccc2)NC(=O)CCCCCCCCNC1=O,AgrC (Staphylococcus aureus),"reporter gene, inhibitor","Staphylococcus aureus, AH1872 (MN EV)",24 h,,IC50,3490 nM
NC[C@@H]1O[C@H](O[C@H]2[C@@H](O)[C@H](O[C@@H]3[C@@H](O)[C@H](N)C[C@H](N)[C@H]3O[C@H]3O[C@H](CO)[C@@H](SCCF)[C@H](O)[C@H]3N)O[C@@H]2CO)[C@H](N)[C@@H](O)[C@@H]1O,"bacterial hybrid ribosome, human cytoplasmic A site",cell-free translation,,,relative to: cytoplasmic hybrid over wild-type bacterial,selectivity ratio,1150
O=C(O)COc1ccc(Cl)cc1,Torpedo CLC-0 T471S C212S,"chloride current, inhibitor, patch clamp",,-140 mV,relative to: wild type,affinity increase,~10 fold

# For quick reference, copied from above:
Structure (SMILES),target,assay,system,conditions,how to read,endpoint,value
CCCCCCCCCCCCCCCC(=O)NCCCC[C@H](NC(=O)[C@H](CCCNC(=N)N)NC(=O)[C@H](Cc1ccc(O)cc1)NC(=O)[C@H](CC(C)C)NC(=O)[C@H](CCCNC(=N)N)NC(=O)CNS(=O)(=O)c1ccc(N)cc1)C(N)=O,70S ribosome (Escherichia coli),"binding, fluorescence quenching",,,,Kd,~0.14 nM
NC[C@@H]1O[C@H](O[C@H]2[C@@H](O)[C@H](O[C@@H]3[C@@H](O)[C@H](N)C[C@H](N)[C@H]3O[C@H]3O[C@H](CO)[C@@H](CCO)[C@H](O)[C@H]3N)O[C@@H]2CO)[C@H](N)[C@@H](O)[C@@H]1O,"bacterial hybrid ribosome, human mitochondrial A1555G A site",cell-free translation,,,relative to: A1555G hybrid over wild-type bacterial,selectivity ratio,833
CC(C)C(N)C(=O)NC(C(=O)OCC(=O)C1(O)CCC2C3CCC4=CC(=O)C=CC4(C)C3C(O)CC21C)C(C)C (stereo not drawn),peptide transporters,,MDCK-MDR1,"100 µM, pH 7.4, 37 °C, with: [3H]-GlySar",relative to: untreated,[3H]-GlySar uptake,40%
